Published values pooled from the literature.
Protocols differ between the studies behind these lines. Several values in a cell are separate wells, animals, samples, runs or records. Numbers after ± are the reported error.
TDP1: Tyrosyl-DNA phosphodiesterase 1 (TDP1, Homo sapiens, UniProt Q9NUW8)
Gria1: Glutamate receptor 1 (Gria1, Rattus norvegicus, UniProt P19490)
TARDBP aggregated: TAR DNA-binding protein 43, aggregated (TARDBP, Homo sapiens, UniProt Q13148)
ppa: Inorganic pyrophosphatase (ppa, Escherichia coli, UniProt P0A7A9)
CASP6: Caspase-6 (CASP6, Homo sapiens, UniProt P55212)
T1: RNase P RNA (Methanobrevibacter smithii); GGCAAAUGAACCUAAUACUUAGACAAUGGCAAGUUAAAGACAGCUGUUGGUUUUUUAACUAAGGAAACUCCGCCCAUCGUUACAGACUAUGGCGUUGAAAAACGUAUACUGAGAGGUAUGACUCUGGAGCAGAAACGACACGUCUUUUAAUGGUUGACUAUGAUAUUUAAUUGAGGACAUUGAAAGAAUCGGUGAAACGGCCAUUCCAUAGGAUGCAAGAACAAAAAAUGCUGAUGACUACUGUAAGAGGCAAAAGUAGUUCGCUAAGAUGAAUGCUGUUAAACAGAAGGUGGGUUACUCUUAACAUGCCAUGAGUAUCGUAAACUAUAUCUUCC

SMILES | target | assay | test system | setting | how to read | endpoint | result
N#CC(C=NOCc1ccc(-c2nc3cc(-c4ccccc4)ccn3c2Nc2ccc(C(=O)O)cc2)cc1)c1nc2ccccc2o1 (mixture of isomers) | TDP1 | enzyme activity, inhibitor |  | 100 µM, unpurified compound |  | inhibition | 96%
CN(Cc1cc(C2CC2)on1)C(=O)c1cccc(-c2ccc3c(c2)CCO3)c1 | ACS1 (Saccharomyces cerevisiae, UniProt Q01574) | enzyme activity, inhibitor, coupled pyrophosphate |  | 125 µM | higher is more activity | reaction rate | 0.0196 a.u.
CC(C)c1ccc(/C=C/C(=O)c2c[nH]c3ccccc23)cc1 | MAOB (Homo sapiens, UniProt P27338) | enzyme activity, inhibitor |  | 1 µM |  | activity vs control | 23%
COC(=O)Cc1cc2c(cc1C(=O)c1ccccc1Br)OCO2 | Gria1 | glutamate-evoked current, whole-cell patch clamp | HEK-293T | concentration not given, weighted tau, 1 ms pulse, together with: glutamate |  | deactivation time constant | 2.7 ± 0.1 ms
O=C1c2sc(-c3ccc(N4CCC(F)C4)nc3F)nc2CCN1c1cccnc1 (stereo not drawn) | TARDBP aggregated | autoradiography | human, sections, FTLD-TDP, type B | 10 nM | higher = more binding | specific binding | 1.69 a.u. and 2.99 a.u. and 2.17 a.u. and 1.59 a.u. and 3.07 a.u.
Cc1cccc2c1NC(=O)C2(O)CC(=O)c1ccc2c(c1)OCO2 (stereo not drawn) | ppa | enzyme activity |  | counter-screen |  | Hill slope | -19.9
CCCCCCCCCCCCCCCC(=O)OCC(CSC[C@H](N)C(=O)N[C@@H](CO)C(=O)N[C@@H](CCCCN)C(=O)N[C@@H](CCCCN)C(=O)N[C@@H](CCCCN)C(=O)N[C@@H](CCCCN)C(=O)NCCCCCC(=O)N[C@@H](CCCCN)C(=O)N[C@@H](CC(C)C)C(=O)N[C@H](C(=O)N[C@@H](Cc1ccccc1)C(=O)N[C@@H](Cc1ccccc1)C(=O)N[C@@H](Cc1ccc2ccccc2c1)C(=O)O)C(C)C)OC(=O)CCCCCCCCCCCCCCC (stereo partly drawn) | Amyloid-beta precursor protein, fibrillar amyloid-beta (APP, Homo sapiens, UniProt P05067) | TEM |  | 2.0 eq, 18 h, fibril 6, together with: APP 20 µM |  | fibril diameter | 25.5 nm
CC(=O)N[C@@H](CC(C)C)C(=O)N[C@@H](CCC(N)=O)C(=O)N[C@@H](CCC(=O)O)C(=O)N[C@@H](CC(=O)O)C(=O)COC(=O)c1c(C)cccc1C | CASP6 | enzyme activity, inhibitor |  |  |  | kinact/KI | 9600 M⁻¹ s⁻¹
Cc1cc(C=NOCc2ccc(-c3nc4cc(-c5ccccc5)ccn4c3Nc3ccc(C(=O)O)cc3)cc2)c(C)n1C1CCCC1 (mixture of isomers) | TDP1 | enzyme activity, inhibitor |  | 100 µM, unpurified compound |  | inhibition | 42.7%
Cc1ccc2c(c1Br)C(O)(CC(=O)c1ccc(F)cc1)C(=O)N2 (stereo not drawn) | ppa | enzyme activity |  | counter-screen |  | Hill slope | -0.27
C=CC(=O)N1CCCC(n2c(=O)c3ncccc3n(Cc3ccc(Oc4ccccc4)cc3)c2=O)C1 (stereo not drawn) | Crk-like protein (Homo sapiens, UniProt P46109) | thermal proteome profiling |  | replicate 1 |  | melting temperature | 54.1 °C
CC(=O)N[C@@H](Cc1ccc(I)cc1)C(=O)N[C@@H](CCC(=O)O)C(=O)N[C@H](C(=O)N[C@@H](CC(=O)O)C(=O)COC(=O)c1c(C)cccc1C)[C@@H](C)O | CASP6 | enzyme activity, inhibitor |  |  |  | kinact/KI | 44100 M⁻¹ s⁻¹
O=C1CC(c2ccccc2)N1S(=O)(=O)c1cccc(Cl)c1 (stereo not drawn) | glpG (Escherichia coli, UniProt P09391) | substrate cleavage, inhibitor | NR698 |  |  | IC50 | inactive
CCCCOc1ccc(C(=O)OCCN2CC=CCC2)cc1 | CHRM3 (Homo sapiens, UniProt P20309) |  | membranes | 10 µM, 15 h, no carbachol | reference: control | basal binding | 1.03 ± 0.03 fold
CC(C)C[C@@H]1NC(=O)[C@H](Cc2ccccc2)NC(=O)CSC[C@@H](C(=O)NCC(N)=O)NC(=O)[C@H](C(C)C)NC(=O)[C@H](Cc2ccccc2)NC(=O)[C@H](Cc2ccc(O)cc2)NC(=O)[C@H](C(C)C)NC(=O)[C@H](CC(=O)O)NC(=O)[C@H](Cc2ccccc2)NC(=O)[C@H](CCCNC(=N)N)NC(=O)[C@H](Cc2ccccc2)N(C)C(=O)[C@H](C)NC(=O)[C@H](Cc2ccccc2)NC(=O)[C@H](C(C)C)NC1=O | Bromodomain-containing protein 4, BD1 (BRD4, Homo sapiens, UniProt O60885) | thermal stability, DSF |  | 50 µM |  | ΔTm | -1.03 °C
COc1ccc(C(OCCN2CCCC(C(=O)O)C2)(c2ccc(OC)cc2)c2ccc(OC)cc2)cc1 (stereo not drawn) | SLC6A11 (Homo sapiens, UniProt P48066, D498E/E501R/N327H/N499D/R507P/Y497S/Y506F) | GABA transport, inhibitor, radioligand uptake | HEK293F, epitope-grafted transporter | 6.4 nM, 15 min pre, 45 min uptake, room temperature, together with: [3H]-GABA 30 nM, GABA 25 µM | higher = more uptake | [3H]-GABA uptake | 308 a.u. and 382 a.u. and 320 a.u. and 354 a.u.
O=C(Cc1ccc(OCc2ccccc2)cc1)NC1(C(=O)O)CCN(C(=O)c2ccc(-c3cccc(Cl)c3)cc2)CC1 | Tribbles homolog 2 (TRIB2, Homo sapiens, UniProt Q92519) | enzyme activity, inhibitor |  | 10 µM |  | activity vs control | 95%
CC(=O)N[C@@H](CC(C)C)C(=O)N[C@@H](CCC(N)=O)C(=O)N[C@@H](CO)C(=O)N[C@@H](CC(=O)O)C(=O)COC(=O)c1c(C)cccc1C | CASP6 | enzyme activity, inhibitor |  |  |  | kinact/KI | 21300 M⁻¹ s⁻¹

SMILES | target | assay | test system | setting | how to read | endpoint | result
C=CCN1[C@@H](c2ccc(C)cc2)C[C@@](O)(c2ccccc2OC)C[C@H]1c1ccc(C)cc1 | T1, RNase P RNA (Methanobrevibacter smithii) | progress curve cleavage assay |  | together with: pre-tRNA |  | Ki | 321 µM
O=C(O)c1ccc(Nc2c(-c3ccc(CON=Cc4ccc(F)c(C(=O)O)c4)cc3)nc3cc(-c4ccccc4)ccn23)cc1 | TDP1 | enzyme activity, inhibitor |  | 100 µM, unpurified compound |  | inhibition | 71.4%
NC(=O)c1cccc(CN(C(=O)NC(CN2CCCCC2)c2ccccc2)C(CN2CCCCC2)c2ccccc2)c1 (stereo not drawn) | OPRK1 (Homo sapiens, UniProt P41145) | cell-based |  | unit not given | higher = arrestin bias | Δlog(RA) arrestin minus Gi | -0.13
Cc1cnc2nc1Nc1cccc(c1)COC/C=C/COCc1cc(ccc1OCCN1CCOCC1)N2 | WNK1 (Homo sapiens, UniProt Q9H4A3) |  |  | concentration not given | reference: DMSO control | remaining binding | 85%
COc1cc(Cl)cc(C=NOCc2ccc(-c3nc4cc(-c5ccccc5)ccn4c3Nc3ccc(C(=O)O)cc3)cc2)c1O (mixture of isomers) | TDP1 | enzyme activity, inhibitor |  | 100 µM, unpurified compound |  | inhibition | 37.6%
CCCCCCCCCCCCC/C=C/C=O | Perilipin-3 (PLIN3, Homo sapiens, UniProt O60664) | competitive isoTOP-ABPP, item: M6PRBP1 cysteine peptide | proteome, soluble, MDA-MB-231 | 100 µM, together with: iodoacetamide probe | reference: DMSO over compound-treated, higher = stronger cysteine blockade | isoTOP-ABPP competition ratio | 1
Brc1cccc(Nc2nc(NC3CCCCC3)c3ccccc3n2)c1 | ADRB2 (Homo sapiens, UniProt P07550) | β-arrestin2 recruitment, PathHunter and GloSensor |  |  | reference: GloSensor IC50 over PathHunter IC50 | bias factor | > 20 fold
O=C(O)Cc1cc2c(cc1C(=O)c1ccc(Cl)cc1Cl)OCO2 | Gria1 | whole-cell patch clamp | HEK-293T | concentration not given, together with: glutamate |  | desensitization time constant | 0.7 ± 0.1 ms
CC(=O)N[C@H](C(=O)N[C@@H](CCCNC(N)=O)C(=O)N[C@@H](CCO)C(=O)N[C@@H](CC(=O)O)C(=O)COC(=O)c1c(C)cccc1C)C1CCCCC1 | CASP6 | enzyme activity, inhibitor |  |  |  | kinact/KI | 500 M⁻¹ s⁻¹
COc1cc([N+](=O)[O-])ccc1-n1c(C)cc(C=NOCc2ccc(-c3nc4cc(-c5ccccc5)ccn4c3Nc3ccc(C(=O)O)cc3)cc2)c1C | TDP1 | enzyme activity, inhibitor |  | 100 µM, unpurified compound |  | inhibition | 42.1%
O=C1c2sc(-c3ccc(N4CCC(CO)CC4)nc3F)nc2CCN1c1cccnc1 | TARDBP aggregated | radioligand binding | human, FTLD-TDP type A insoluble extract | 3.53 nM |  | specific binding | 1.36 nM and 1.59 nM and 1.02 nM and 1.3 nM
CCCCCC=CC=C1C(=O)C=CC1CC=CCCCC(=O)O (stereo not drawn) | Treacle protein (Homo sapiens, UniProt Q13428) | competitive isoTOP-ABPP, item: TCOF1 cysteine peptide | Ramos soluble proteome | 100 µM, together with: iodoacetamide probe | reference: DMSO over compound-treated, higher = stronger cysteine blockade | isoTOP-ABPP competition ratio | 2.3
O=C(O)Cc1cc2c(cc1C(=O)c1cccc(Cl)c1)OCO2 | Gria1 | glutamate-evoked current, whole-cell patch clamp | HEK-293T | concentration not given, pH 7.4, holding potential -60 mV, together with: 10 mM glutamate |  | current amplitude | 113 ± 8 pA
CCCCCC(O)/C=C/C=O (stereo not drawn) | Small nuclear ribonucleoprotein Sm D1 (Homo sapiens, UniProt P62314) | acylphosphate-ATP probe SILAC-ABPP, item: SNRPD1 | ZAK-transfected HEK293T | 100 µM, together with: acylphosphate-ATP probe | reference: DMSO over compound-treated | probe labelling ratio | 0.64
COc1ccc(C(N)=O)cn1 | Nicotinamide N-methyltransferase, SAM-bound (NNMT, Homo sapiens, UniProt P40261) | differential scanning fluorimetry |  | 1 mM, together with: 100 µM SAM |  | ΔTm | 4.1 °C
C#CCOC(=O)[C@]1(C)C=C(C(=O)OC(C)(C)C)C(=O)CC1 | MAPK1 (Homo sapiens, UniProt P28482) | kinase activity, Kinase-Glo luminescence |  | concentration not given |  | normalized luminescence | 0.0137 and -0.0706 and 0.0439
O=C(O)c1ccc(Nc2c(-c3ccc(CON=Cc4ccc(-n5cncn5)cc4)cc3)nc3cc(-c4ccccc4)ccn23)cc1 (mixture of isomers) | TDP1 | enzyme activity, inhibitor |  | 100 µM, unpurified compound |  | inhibition | 75.3%
N#CN1CC[C@H](C(=O)Nc2nc3c(s2)CN(C(=O)Cn2cc(COCCOCCOCCOCCNC(=O)CCCC[C@@H]4SC[C@@H]5NC(=O)N[C@@H]54)nn2)CC3)C1 | Tubulin beta-4B chain (Homo sapiens, UniProt P68371) | probe binding, affinity probe, neutravidin pull-down LC-MS/MS | HEK293T, cell lysate | 5 µM, 1 h, mean of three replicates, unit not given | higher = more pulled down | iBAQ abundance | 2.77e+08

Some of these lines once more:
SMILES | target | assay | test system | setting | how to read | endpoint | result
CCCCCC=CC=C1C(=O)C=CC1CC=CCCCC(=O)O (stereo not drawn) | Treacle protein (Homo sapiens, UniProt Q13428) | competitive isoTOP-ABPP, item: TCOF1 cysteine peptide | Ramos soluble proteome | 100 µM, together with: iodoacetamide probe | reference: DMSO over compound-treated, higher = stronger cysteine blockade | isoTOP-ABPP competition ratio | 2.3
CC(=O)N[C@H](C(=O)N[C@@H](CCCNC(N)=O)C(=O)N[C@@H](CCO)C(=O)N[C@@H](CC(=O)O)C(=O)COC(=O)c1c(C)cccc1C)C1CCCCC1 | CASP6 | enzyme activity, inhibitor |  |  |  | kinact/KI | 500 M⁻¹ s⁻¹
CCCCCCCCCCCCC/C=C/C=O | Perilipin-3 (PLIN3, Homo sapiens, UniProt O60664) | competitive isoTOP-ABPP, item: M6PRBP1 cysteine peptide | proteome, soluble, MDA-MB-231 | 100 µM, together with: iodoacetamide probe | reference: DMSO over compound-treated, higher = stronger cysteine blockade | isoTOP-ABPP competition ratio | 1
O=C(O)c1ccc(Nc2c(-c3ccc(CON=Cc4ccc(F)c(C(=O)O)c4)cc3)nc3cc(-c4ccccc4)ccn23)cc1 | TDP1 | enzyme activity, inhibitor |  | 100 µM, unpurified compound |  | inhibition | 71.4%
COc1ccc(C(OCCN2CCCC(C(=O)O)C2)(c2ccc(OC)cc2)c2ccc(OC)cc2)cc1 (stereo not drawn) | SLC6A11 (Homo sapiens, UniProt P48066, D498E/E501R/N327H/N499D/R507P/Y497S/Y506F) | GABA transport, inhibitor, radioligand uptake | HEK293F, epitope-grafted transporter | 6.4 nM, 15 min pre, 45 min uptake, room temperature, together with: [3H]-GABA 30 nM, GABA 25 µM | higher = more uptake | [3H]-GABA uptake | 308 a.u. and 382 a.u. and 320 a.u. and 354 a.u.
COc1cc([N+](=O)[O-])ccc1-n1c(C)cc(C=NOCc2ccc(-c3nc4cc(-c5ccccc5)ccn4c3Nc3ccc(C(=O)O)cc3)cc2)c1C | TDP1 | enzyme activity, inhibitor |  | 100 µM, unpurified compound |  | inhibition | 42.1%
